Assay results collected from several papers.
Lines come from different studies, so protocols differ.
B1: NUP60 200-318 (Saccharomyces cerevisiae, UniProt P39705); sequence looked up; chain SMNTTLGSIGSRKYSFNYSSLPSPYKTTVYRYSAAKKIPDTYTANTSAQSIASAKSVRSGVSKSAPSKKISNTAAALVSLLDENDSKKNNAASELANPYSSYVSQIRKHKRVSPNAAPR
B2: NOTCH3 EGF5-12 197-505 (Homo sapiens, UniProt Q9UM47); sequence looked up; chain PAVPCAPSPCRNGGTCRQSGDLTYDCACLPGFEGQNCEVNVDDCPGHRCLNGGTCVDGVNTYNCQCPPEWTGQFCTEDVDECQLQPNACHNGGTCFNTLGGHSCVCVNGWTGESCSQNIDDCATAVCFHGATCHDRVASFYCACPMGKTGLLCHLDDACVSNPCHEDAICDTNPVNGRAICTCPPGFTGGACDQDVDECSIGANPCEHLGRCVNTQGSFLCQCGRGYTGPRCETDVNECLSGPCRNQATCLDRIGQFTCICMAGFTGTYCEVDIDECQSSPCVNGGVCKDRVNGFSCTCPSGFSGSTCQ
B3: rep (Escherichia coli, UniProt P09980); sequence looked up; chain MRLNPGQQQAVEFVTGPCLVLAGAGSGKTRVITNKIAHLIRGCGYQARHIAAVTFTNKAAREMKERVGQTLGRKEARGLMISTFHTLGLDIIKREYAALGMKANFSLFDDTDQLALLKELTEGLIEDDKVLLQQLISTISNWKNDLKTPSQAAASAIGERDRIFAHCYGLYDAHLKACNVLDFDDLILLPTLLLQRNEEVRKRWQNKIRYLLVDEYQDTNTSQYELVKLLVGSRARFTVVGDDDQSIYSWRGARPQNLVLLSQDFPALKVIKLEQNYRSSGRILKAANILIANNPHVFEKRLFSELGYGAELKVLSANNEEHEAERVTGELIAHHFVNKTQYKDYAILYRGNHQSRVFEKFLMQNRIPYKISGGTSFFSRPEIKDLLAYLRVLTNPDDDSAFLRIVNTPKREIGPATLKKLGEWAMTRNKSMFTASFDMGLSQTLSGRGYEALTRFTHWLAEIQRLAEREPIAAVRDLIHGMDYESWLYETSPSPKAAEMRMKNVNQLFSWMTEMLEGSELDEPMTLTQVVTRFTLRDMMERGESEEELDQVQLMTLHASKGLEFPYVYMVGMEEGFLPHQSSIDEDNIDEERRLAYVGITRAQKELTFTLCKERRQYGELVRPEPSRFLLELPQDDLIWEQERKVVSAEERMQKGQSHLANLKAMMAAKRGK
B4: ARHGEF40 Y1214A/L1217E/L1218E (Homo sapiens, UniProt Q8TER5); sequence looked up; chain MEPEPVEDCVQSTLAALYPPFEATAPTLLGQVFQVVERTYREDALRYTLDFLVPAKHLLAKVQQEACAQYSGFLFFHEGWPLCLHEQVVVQLAALPWQLLRPGDFYLQVVPSAAQAPRLALKCLAPGGGRVQEVPVPNEACAYLFTPEWLQGINKDRPTGRLSTCLLSAPSGIQRLPWAELICPRFVHKEGLMVGHQPSTLPPELPSGPPGLPSPPLPEEALGTRSPGDGHNAPVEGPEGEYVELLEVTLPVRGSPTDAEGSPGLSRVRTVPTRKGAGGKGRHRRHRAWMHQKGLGPRGQDGARPPGEGSSTGASPESPPGAEAVPEAAVLEVSEPPAEAVGEASGSCPLRPGELRGGGGGGQGAEGPPGTPRRTGKGNRRKKRAAGRGALSRGGDSAPLSPGDKEDASHQEALGNLPSPSEHKLPECHLVKEEYEGSGKPESEPKELKTAGEKEPQLSEACGPTEEGAGERELEGPGLLCMAGHTGPEGPLSDTPTPPLETVQEGKGDNIPEEALAVSVSDHPDVAWDLMASGFLILTGGVDQSGRALLTITPPCPPEEPPPSRDTLNTTLHYLHSLLRPDLQTLGLSVLLDLRQAPPLPPALIPALSQLQDSGDPPLVQRLLILIHDDLPTELCGFQGAEVLSENDLKRVAKPEELQWELGGHRDPSPSHWVEIHQEVVRLCRLCQGVLGSVRQAIEELEGAAEPEEEEAVGMPKPLQKVLADPRLTALQRDGGAILMRLRSTPSSKLEGQGPATLYQEVDEAIHQLVRLSNLHVQQQEQRQCLRRLQQVLQWLSGPGEEQLASFAMPGDTLSALQETELRFRAFSAEVQERLAQAREALALEENATSQKVLDIFEQRLEQVESGLHRALRLQRFFQQAHEWVDEGFARLAGAGPGREAVLAALALRRAPEPSAGTFQEMRALALDLGSPAALREWGRCQARCQELERRIQQHVGEEASPRGYRRRRADGASSGGAQWGPRSPSPSLSSLLLPSSPGPRPAPSHCSLAPCGEDYEEEGPELAPEAEGRPPRAVLIRGLEVTSTEVVDRTCSPREHVLLGRARGPDGPWGVGTPRMERKRSISAQQRLVSELIACEQDYVATLSEPVPPPGPELTPELRGTWAAALSARERLRSFHRTHFLRELQGCATHPLRIGACFLRHGDQFSLYAQYVKHRHKLENGLAALSPLSKGSMEAGPYLPRALQQPLEQLTRAGREEEELLREAGPELSSECRALGAAVQLLREQEARGRDLLAVEAVRGCEIDLKEQGQLLHRDPFTVICGRKKCLRHVFLFEHLLLFSKLKGPEGGSEMFVYKQAFKTADMGLTENIGDSGLCFELWFRRRRAREAYTLQATSPEIKLKWTSSIAQLLWRQAAHNKELRVQQMVSMGIGNKPFLDIKALGERTLSALLTGRAARTRASVAVSSFEHAGPSLPGLSPGACSLPARVEEEAWDLDVKQISLAPETLDSSGDVSPGPRNSPSLQPPHPGSSTPTLASRGILGLSRQSHARALSDPTTPL
B5: AEBP2 407-517 (Homo sapiens, UniProt Q6ZN18); sequence looked up; chain RHRAICFNLSAHIESLGKGHSVVFHSTVIAKRKEDSGKIKLLLHWMPEDILPDVWVNESERHQLKTKVVHLSKLPKDTALLLDPNIYRTMPQKRLKRTLIRKVFNLYLSKQ
B6: INF2 941-1249 (Homo sapiens, UniProt Q27J81-1); FITC label; chain KQQLAEEEARRPRGEDGKPVRKGPGKQEEVCVIDALLADIRKGFQLRKTARGRGDTDGGSKAASMDPPRATEPVATSNPAGDPVGSTRCPASEPGLDATTASESRGWDLVDAVTPGPQPTLEQLEEGGPRPLERRSSWYVDASDVLTTEDPQCPQPLEGAWPVTLGDAQALKPLKFSSNQPPAAGSSRQDAKDPTSLLGVLQAEADSTSEGLEDAVHSRGARPPAAGPGGDEDEDEEDTAPESALDTSLDKSFSEDAVTDSSGSGTLPRARGRASKGTGKRRKKRPSRSQEEVPPDSDDNKTKKLCVIQ
B7: ptsO 1-85 (Escherichia coli, UniProt P0A9N0); sequence looked up; chain MTVKQTVEITNKLGMHARPAMKLFELMQGFDAEVLLRNDEGTEAEANSVIALLMLDSAKGRQIEVEATGPQEEEALAAVIALFNS
B8: Rai14 17-400 (Mus musculus, UniProt Q9EP71); sequence looked up; chain NKNDDRLLQAVENGDAEKVASLLGKKGASATKHDSEGKTAFHLAAAKGHVECLKVMVTHGVDVTAQDSSGHSALHVAAKNGHPECIRKLLQYKSPAENIDNSGKTALHYAAAQGCLQAVQLLCEHKSPINLKDLDGNIPLLVAVQNGHSEACHFLLDHGADVNSRDKNGRTALMLACETGSSNTVDALIKKGADLSLVDSLGHNALHYSKLSENAGIQNLLLSKISQDADLKTPTKPKQHDQVSKISSERSGTPKKRKAPPPPISPTQLSDVSSPRSITSTPLSGKESVFFAEAPFKAEISSIQENKDRLSDSTAGADSLLDISSEADQQDLLVLLQAKVASLTLHNKELQDKLQAKSPKDKEAEADLSFQSFHSTQTDLAPSP
B9: TFC4 1-1025 (Saccharomyces cerevisiae, UniProt P33339); chain MAAGKLKKEQQNQSAERESADTGKVNDEDEEHLYGNIDDYKHLIQDEEYDDEDVPHDLQLSEDEYNSERDSSLLAEFSDYGEISEDDEEDFMNAIREASNFKVKKKKKNDKGKSYGRQRKERVLDPEVAQLLSQANEAFVRNDLQVAERLFNEVIKKDARNFAAYETLGDIYQLQGRLNDCCNSWFLAAHLNASDWEFWKIVAILSADLDHVRQAIYCFSRVISLNPMEWESIYRRSMLYKKTGQLARALDGFQRLYMYNPYDANILRELAILYVDYDRIEDSIELYMKVFNANVERREAILAALENALDSSDEESAAEGEDADEKEPLEQDEDRQMFPDINWKKIDAKYKCIPFDWSSLNILAELFLKLAVSEVDGIKTIKKCARWIQRRESQTFWDHVPDDSEFDNRRFKNSTFDSLLAAEKEKSYNIPIDIRVRLGLLRLNTDNLVEALNHFQCLYDETFSDVADLYFEAATALTRAEKYKEAIDFFTPLLSLEEWRTTDVFKPLARCYKEIESYETAKEFYELAIKSEPDDLDIRVSLAEVYYRLNDPETFKHMLVDVVEMRKHQVDETLHRISNEKSSNDTSDISSKPLLEDSKFRTFRKKKRTPYDAERERIERERRITAKVVDKYEKMKKFELNSGLNEAKQASIWINTVSELVDIFSSVKNFFMKSRSRKFVGILRRTKKFNTELDFQIERLSKLAEGDSVFEGPLMEERVTLTSATELRGLSYEQWFELFMELSLVIAKYQSVEDGLSVVETAQEVNVFFQDPERVKMMKFVKLAIVLQMDDEEELAENLRGLLNQFQFNRKVLQVFMYSLCRGPSSLNILSSTIQQKFFLRQLKAFDSCRYNTEVNGQASITNKEVYNPNKKSSPYLYYIYAVLLYSSRGFLSALQYLTRLEEDIPDDPMVNLLMGLSHIHRAMQRLTAQRHFQIFHGLRYLYRYHKIRKSLYTDLEKQEADYNLGRAFHLIGLVSIAIEYYNRVLENYDDGKLKKHAAYNSIIIYQQSGNVELADHLMEKYLSI
B10: ND2 1-469 (Yarrowia lipolytica, UniProt Q9B6C8); sequence looked up; chain MLILAIISLITFVSMSKLSDNRAIIRLINIYLILVLVLDSFLYLLFLNNQTYTVMGELLIFNSFTFYIDMLIYFIMIVISSLYGYNLYNNNLYKTLFEPKKELIILFLINILGALLIVHSNDFITLFVAIELQSYSIYLITAIYNSSYKASKASMLYFFMGGILSILIAYSINTYYSVLNSYTLHSLDSLIINTLDLNLILIALSLGLLFKIGIAPLHKWLISIYENTPILITIYISLIPKISILSYLVLSNISINSLVISILAILTLLVGSVGGLLQIKIKRLLAFSGLTNAGYMMLLLLLNNNEFSYLYYITQYSISHLAIFMIIIFSIYYINYINNQYNPIIYVNQLKGLIHDNAYLVLSMAIVVFSFIGIPPLLGFFGKLNILMSILNNGYYFISIVLIVASLISALYYLYLLNVSIQDKNNILINSNETVSSVLSYILSSLIILITFGFIYNSLIIDIFNVYFN
B11: fliM 1-229 (Thermotoga maritima, UniProt Q9WZE6); sequence looked up; chain MSDVLSQEEINQLIEALMKGELKEEDLLKEEEEKKVKPYDFKRPSKFSKEQLRTFQMIHENFGRALSTYLSGRLRTFVDVEISIDQLTYEEFIRSVMIPSFIVIFTGDVFEGSAIFEMRLDLFYTMLDIIMGGPGENPPNRPPTEIETSIMRKEVTNMLTLLAQAWSDFQYFIPSIENVETNPQFVQIVPPNEIVLLVTASVSWGEFTSFINVCWPFSLLEPLLEKLSD
Chain of UniProt Q9B6D3 (whole entry, looked up): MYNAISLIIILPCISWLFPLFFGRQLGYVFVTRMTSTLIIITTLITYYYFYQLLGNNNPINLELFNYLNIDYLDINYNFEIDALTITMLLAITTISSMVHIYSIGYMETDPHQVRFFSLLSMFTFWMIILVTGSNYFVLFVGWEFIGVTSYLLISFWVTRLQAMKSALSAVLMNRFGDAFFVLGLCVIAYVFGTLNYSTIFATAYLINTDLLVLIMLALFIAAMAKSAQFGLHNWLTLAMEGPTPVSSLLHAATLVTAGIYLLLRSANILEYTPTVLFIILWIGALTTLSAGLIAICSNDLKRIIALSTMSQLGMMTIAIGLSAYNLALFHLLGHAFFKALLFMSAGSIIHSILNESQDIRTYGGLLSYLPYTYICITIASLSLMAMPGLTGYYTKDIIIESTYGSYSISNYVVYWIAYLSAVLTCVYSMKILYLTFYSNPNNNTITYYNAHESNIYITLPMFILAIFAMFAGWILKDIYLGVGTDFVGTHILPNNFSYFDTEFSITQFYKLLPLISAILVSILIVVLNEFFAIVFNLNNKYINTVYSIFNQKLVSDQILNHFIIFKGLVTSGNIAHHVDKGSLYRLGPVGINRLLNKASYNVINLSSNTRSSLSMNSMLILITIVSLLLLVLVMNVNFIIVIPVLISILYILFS
Chain of UniProt Q00610 (whole entry, looked up): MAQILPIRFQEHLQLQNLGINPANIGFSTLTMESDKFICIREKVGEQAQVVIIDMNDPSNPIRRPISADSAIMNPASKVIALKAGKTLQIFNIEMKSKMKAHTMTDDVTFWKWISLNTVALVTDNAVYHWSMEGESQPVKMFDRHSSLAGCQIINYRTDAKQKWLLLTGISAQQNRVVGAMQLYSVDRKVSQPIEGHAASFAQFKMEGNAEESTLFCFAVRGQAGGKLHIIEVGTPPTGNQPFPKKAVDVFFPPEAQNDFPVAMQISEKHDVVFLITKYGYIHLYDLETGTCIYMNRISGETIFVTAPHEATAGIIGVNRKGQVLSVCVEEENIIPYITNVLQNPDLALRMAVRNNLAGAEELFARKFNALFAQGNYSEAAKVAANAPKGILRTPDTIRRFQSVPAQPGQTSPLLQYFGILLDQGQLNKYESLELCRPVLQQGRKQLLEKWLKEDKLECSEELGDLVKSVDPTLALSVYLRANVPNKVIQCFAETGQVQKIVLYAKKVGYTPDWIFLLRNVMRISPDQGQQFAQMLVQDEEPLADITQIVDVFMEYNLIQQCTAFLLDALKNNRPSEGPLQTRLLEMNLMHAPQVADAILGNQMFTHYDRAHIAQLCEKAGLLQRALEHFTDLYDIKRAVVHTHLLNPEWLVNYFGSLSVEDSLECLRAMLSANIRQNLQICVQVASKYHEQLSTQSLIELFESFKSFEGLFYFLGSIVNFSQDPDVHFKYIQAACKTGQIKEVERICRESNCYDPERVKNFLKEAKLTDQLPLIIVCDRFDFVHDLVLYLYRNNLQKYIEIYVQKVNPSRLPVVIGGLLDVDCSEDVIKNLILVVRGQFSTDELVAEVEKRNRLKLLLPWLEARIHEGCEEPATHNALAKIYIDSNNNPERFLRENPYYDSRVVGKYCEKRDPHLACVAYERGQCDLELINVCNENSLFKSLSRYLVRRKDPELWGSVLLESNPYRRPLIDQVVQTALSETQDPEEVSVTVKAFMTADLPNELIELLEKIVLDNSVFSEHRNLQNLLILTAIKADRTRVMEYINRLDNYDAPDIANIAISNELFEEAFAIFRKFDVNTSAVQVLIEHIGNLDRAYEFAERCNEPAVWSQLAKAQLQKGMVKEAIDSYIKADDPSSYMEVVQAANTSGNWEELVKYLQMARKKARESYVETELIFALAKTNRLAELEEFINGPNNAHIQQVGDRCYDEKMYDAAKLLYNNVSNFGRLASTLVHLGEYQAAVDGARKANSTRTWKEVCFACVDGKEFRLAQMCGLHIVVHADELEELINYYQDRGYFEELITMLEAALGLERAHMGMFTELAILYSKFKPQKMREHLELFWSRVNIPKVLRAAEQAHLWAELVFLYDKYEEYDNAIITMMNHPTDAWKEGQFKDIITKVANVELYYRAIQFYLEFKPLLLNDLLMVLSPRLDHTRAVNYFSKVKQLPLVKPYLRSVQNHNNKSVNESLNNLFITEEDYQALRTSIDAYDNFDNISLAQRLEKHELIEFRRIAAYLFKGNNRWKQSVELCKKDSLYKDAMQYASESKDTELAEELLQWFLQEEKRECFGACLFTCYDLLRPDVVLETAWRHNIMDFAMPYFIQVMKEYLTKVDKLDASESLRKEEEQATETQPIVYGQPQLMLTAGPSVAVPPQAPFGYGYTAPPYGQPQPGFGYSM
Chain of UniProt P37177 (whole entry, looked up): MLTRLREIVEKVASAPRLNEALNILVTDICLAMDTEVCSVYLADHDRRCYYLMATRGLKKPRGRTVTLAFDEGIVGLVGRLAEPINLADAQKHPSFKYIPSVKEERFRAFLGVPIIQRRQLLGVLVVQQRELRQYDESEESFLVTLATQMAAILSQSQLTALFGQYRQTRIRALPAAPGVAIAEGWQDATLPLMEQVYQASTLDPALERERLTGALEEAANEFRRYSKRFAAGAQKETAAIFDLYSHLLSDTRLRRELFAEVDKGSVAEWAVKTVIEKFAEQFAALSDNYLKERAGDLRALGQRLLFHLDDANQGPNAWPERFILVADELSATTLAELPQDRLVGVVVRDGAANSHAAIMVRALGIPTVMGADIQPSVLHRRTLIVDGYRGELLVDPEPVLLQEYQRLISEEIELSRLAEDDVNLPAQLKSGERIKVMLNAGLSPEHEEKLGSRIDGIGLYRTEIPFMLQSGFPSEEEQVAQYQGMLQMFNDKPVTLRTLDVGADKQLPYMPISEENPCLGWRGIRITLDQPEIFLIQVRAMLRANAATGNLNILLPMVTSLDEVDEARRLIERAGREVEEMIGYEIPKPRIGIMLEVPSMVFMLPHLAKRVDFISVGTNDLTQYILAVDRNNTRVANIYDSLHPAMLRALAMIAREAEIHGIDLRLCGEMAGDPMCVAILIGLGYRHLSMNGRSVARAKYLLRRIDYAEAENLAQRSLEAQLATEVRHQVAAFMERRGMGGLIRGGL
Chain of UniProt P34111 (whole entry, looked up): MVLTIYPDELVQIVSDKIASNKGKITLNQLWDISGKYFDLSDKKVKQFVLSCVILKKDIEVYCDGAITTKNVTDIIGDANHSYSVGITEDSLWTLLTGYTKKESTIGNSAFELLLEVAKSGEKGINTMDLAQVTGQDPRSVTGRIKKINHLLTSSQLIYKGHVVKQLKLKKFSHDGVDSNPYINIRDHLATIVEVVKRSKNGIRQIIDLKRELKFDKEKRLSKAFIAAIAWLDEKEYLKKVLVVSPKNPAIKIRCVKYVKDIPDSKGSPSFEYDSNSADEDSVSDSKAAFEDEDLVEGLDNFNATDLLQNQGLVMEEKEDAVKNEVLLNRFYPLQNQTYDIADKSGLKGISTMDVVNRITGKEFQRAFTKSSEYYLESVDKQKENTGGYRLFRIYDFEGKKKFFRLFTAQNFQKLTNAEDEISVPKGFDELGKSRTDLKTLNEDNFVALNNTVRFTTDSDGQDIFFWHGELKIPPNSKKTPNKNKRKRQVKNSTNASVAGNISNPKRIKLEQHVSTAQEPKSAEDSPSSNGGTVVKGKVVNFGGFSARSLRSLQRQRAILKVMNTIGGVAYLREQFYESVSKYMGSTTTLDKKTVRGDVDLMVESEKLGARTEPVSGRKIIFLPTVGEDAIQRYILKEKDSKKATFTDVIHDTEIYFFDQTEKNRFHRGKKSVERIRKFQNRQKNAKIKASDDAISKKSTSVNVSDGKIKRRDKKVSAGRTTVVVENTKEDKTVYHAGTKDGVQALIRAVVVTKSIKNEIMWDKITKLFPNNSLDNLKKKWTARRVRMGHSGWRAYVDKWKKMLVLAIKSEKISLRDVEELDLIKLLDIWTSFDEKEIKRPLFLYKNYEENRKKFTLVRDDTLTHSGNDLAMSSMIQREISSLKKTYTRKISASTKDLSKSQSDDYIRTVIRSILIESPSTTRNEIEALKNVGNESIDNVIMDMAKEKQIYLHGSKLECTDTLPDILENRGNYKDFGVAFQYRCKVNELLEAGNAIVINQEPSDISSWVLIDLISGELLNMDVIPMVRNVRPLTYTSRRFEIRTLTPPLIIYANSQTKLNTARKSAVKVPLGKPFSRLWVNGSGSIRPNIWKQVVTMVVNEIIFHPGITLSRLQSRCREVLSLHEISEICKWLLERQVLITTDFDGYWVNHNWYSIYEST
Chain of UniProt Q9Z0W5 (whole entry, looked up): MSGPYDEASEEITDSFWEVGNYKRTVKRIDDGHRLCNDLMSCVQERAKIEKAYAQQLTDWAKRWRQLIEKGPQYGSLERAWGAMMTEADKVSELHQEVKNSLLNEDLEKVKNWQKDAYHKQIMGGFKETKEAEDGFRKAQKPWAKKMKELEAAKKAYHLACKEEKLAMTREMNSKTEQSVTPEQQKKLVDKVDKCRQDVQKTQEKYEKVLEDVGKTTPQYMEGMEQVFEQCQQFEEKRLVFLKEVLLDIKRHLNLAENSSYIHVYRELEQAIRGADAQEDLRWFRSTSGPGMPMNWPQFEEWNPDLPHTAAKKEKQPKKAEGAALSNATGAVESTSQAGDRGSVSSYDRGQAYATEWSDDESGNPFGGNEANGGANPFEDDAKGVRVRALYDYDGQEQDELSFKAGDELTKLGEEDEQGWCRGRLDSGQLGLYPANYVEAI
Chain of UniProt Q9WY63 (whole entry, looked up): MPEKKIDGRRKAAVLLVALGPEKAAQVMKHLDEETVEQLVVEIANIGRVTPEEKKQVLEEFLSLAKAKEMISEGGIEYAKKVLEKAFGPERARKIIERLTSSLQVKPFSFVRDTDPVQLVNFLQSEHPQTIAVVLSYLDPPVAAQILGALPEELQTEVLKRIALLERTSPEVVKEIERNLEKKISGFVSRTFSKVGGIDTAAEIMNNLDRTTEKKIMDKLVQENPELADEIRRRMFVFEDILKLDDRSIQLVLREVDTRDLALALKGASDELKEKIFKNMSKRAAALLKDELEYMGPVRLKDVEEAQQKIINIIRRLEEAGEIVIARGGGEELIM

`B1 (NUP60 200-318)`: binding “binds” (SEH1 (Saccharomyces cerevisiae, UniProt P53011); cross-linking).
`MSVLTPLLLRGLTGSARRLPVPRAK (COX8A presequence peptide, 1-25)` — result for binding: “binds” (TOMM20 cytosolic domain, 62-127, N-terminal cysteine ATTO550 label (Homo sapiens, UniProt Q15388); fluorescence polarisation; peptide).
For `ASPRRR (phosphopeptide; N-acetyl, pS2, C-terminal amide)`, binding read “binds” (Cdc14a 1-345 C278S (Mus musculus, UniProt Q6GQT0-1); crystal structure; peptide).
`KESALRKQDLILLFDPLLR (TACC3 to 568 550-568 S558D/Y560I/K562L (Homo sapiens, UniProt Q9Y6A5); sequence looked up)` — result for binding: “binds” (CLTC 358-574 (Homo sapiens, UniProt Q00610); peptide array; peptide).
`B2 (NOTCH3 EGF5-12 197-505)`: binding “binds” (DLL4 27-400 (Homo sapiens, UniProt Q9NR61); SPR).
For `B3 (rep)`, binding read “binds” (polB full length, N-terminal FLAG (Escherichia coli, UniProt P21189); pull-down).
`B4 (ARHGEF40 Y1214A/L1217E/L1218E)`: binding “binds” (ARHGEF11 (Homo sapiens, UniProt O15085); co-IP).
`B5 (AEBP2 407-517)` — result for binding: “binds” (SUZ12/RBBP4 SUZ12 76-545 (Homo sapiens); SEC).
`B6 (INF2 941-1249)` — result for binding: “binds” (INF2 31-420 (Homo sapiens, UniProt Q27J81); FP).
Under binding, `ATKAARKSAPATG (H3 peptide 22-34 (UniProt P68431); K27me3)` is recorded as “binds” (CBX7 8-62 D50C/R52D (Homo sapiens, UniProt O95931); array; peptide).
For `B7 (ptsO 1-85)`, binding read “binds” (ptsP 170-424 (Escherichia coli, UniProt P37177); SPR).
`B8 (Rai14 17-400)`: binding “binds” (Pacsin1 (Rattus norvegicus, UniProt Q9Z0W5); co-sedimentation).
`B9 (TFC4 1-1025)`: binding “binds” (TFC3 1-1160 (Saccharomyces cerevisiae, UniProt P34111); cryo-EM).
Under binding, `HGKNTFLSRIFGL (ATG9 12-24 (Saccharomyces cerevisiae, UniProt Q12142); sequence looked up)` is recorded as “binds” (Atg23 full-length, dimer (yeast, UniProt Q06671); pull-down; 5 µM, 15 min, pH 8, 4 °C, NaCl 150 mM).
Under binding, `B10 (ND2 1-469)` is recorded as “binds” (ND5 1-655 (Yarrowia lipolytica, UniProt Q9B6D3); cryo-EM).
`B11 (fliM 1-229)`: binding “binds” (fliG 104-334 (Thermotoga maritima, UniProt Q9WY63); NMR titration).
